Measurements pooled from the literature.
Each line is one published result; not all experiments were run side by side.
Cell line: SK-OV-3

With `CC1(C)CC(C)(C)c2cc(N/C(S)=N/c3ccc([N+](=O)[O-])cc3)ccc2S1` the EC50 was 4 to 5 µM (refers to: cyclin D1; 24 h; decrease).
The IC50 of `CC(=O)c1c(C)c2cnc(Nc3ccc(N4CCNCC4)cn3)nc2n(C2CCCC2)c1=O` is reported as 1.98 µM (cell growth or viability; 6 days).
With `C=CCc1ccc(OCc2nnc(SCC(=O)N3CCCCC3)o2)c(OC)c1` the IC50 was 181 µM (cell growth or viability, MTT; 72 h).
For `CCC(=O)N1CCC(COCC(=O)N2CCN(c3nc(-c4cnc(N)nc4C(F)F)nc(N4CCOC[C@@H]4C)n3)CC2)CC1`, the IC50 was 0.048 µM (Akt phosphorylation, inhibitor, in-cell western, refers to: Akt pSer473; 1 h).
For `N.N.O=C([O-])C1(C(=O)[O-])CCC1.[Pt+2]`, “decrease of cell viability” read about 40% (platinum resistant; 56.6 µM, 72 h).
With `CCCCCCCC(=O)NCCCC[C@H](N)C(=O)NCCCNCCCCNCCCN` the EC50 was 30 µM (cell growth; 6 days, with: DFMO 5.0 mM, spermidine 0.5 µM, aminoguanidine 1.0 mM).
`C=CC(=O)N1CCC(Cc2cccc(C(=O)N3CCN(c4nc(-c5cnc(N)nc5C(F)F)nc(N5CCOCC5)n4)CC3)c2)CC1` has an IC50 of 0.041 µM (Akt phosphorylation, inhibitor, in-cell western, refers to: Akt pSer473; 1 h).
With `C=CCc1ccc(OCc2nnc(SCC(=O)Nc3cccc(C)c3)o2)c(OC)c1` the IC50 was 65.4 µM (cell growth or viability, MTT; 72 h).

Excerpt of the above:
The IC50 of `CC(=O)c1c(C)c2cnc(Nc3ccc(N4CCNCC4)cn3)nc2n(C2CCCC2)c1=O` is reported as 1.98 µM (cell growth or viability; 6 days).
